Measurements pooled from the literature.
A part holds a random share of what one study measured.

Set 1
Target: RNA binding protein fox-1 homolog 2, RRM domain, GST-SBP tag (RBFOX2, Homo sapiens, UniProt O43251-10, residues 100-194)
Technique: RNA Bind-n-Seq
Form: RNA
Sample: in vitro
Concentration: 365 nM
Setting: natural RNA segment, single round, ends assumed
Relative to: no-protein control
Direction: higher = stronger binding
Residues (chain): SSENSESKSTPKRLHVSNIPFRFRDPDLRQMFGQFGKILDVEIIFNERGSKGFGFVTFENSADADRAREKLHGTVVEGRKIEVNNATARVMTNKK
Oligonucleotide	RBNS enrichment (R)
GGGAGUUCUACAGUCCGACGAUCUAGGGCCACAUCAACCUGAGUUGGUACUGGGUGGCCAGGAUGGGGACUUUCCCAUUCUCAGCUGAGGUUGGAAGAAACCACUCUGGGUGUCCUUUCUGGGACCUGUCUGCUGGAAUUCUCGGGUGCCAA	0.275
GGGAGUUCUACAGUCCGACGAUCGGGGCUUCCUUGGGACCAGUGCAAGGAAGUUCUGCUGUCCCUGGGAAGUCUCAGAACCAGGAAGGAAACCCUGUGGAGGCUGCCCUUUGACCUUUGGACGCCACCUGUAAUGGAAUUCUCGGGUGCCAA	0.382
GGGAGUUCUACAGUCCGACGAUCUUAAUCAGUGAAUCAAAUUAUGAUUACAAUUAUCAAAUGAAUGCUCAGCAUUAAUUGAAAACUGUUUUGUGAAACAUGUCUACCCAGAAAAGUAGCAUUCUAUAAAUACUUGGAAUUCUCGGGUGCCAA	0.31
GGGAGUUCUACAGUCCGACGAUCGAGUCACGCUCAAUUGACCCUGCCAGAGACGGGAAGAGGGGGGCUGUCGGCUGCUGCUUCUGGGCCACGGGGAGCCCCAGGACCUAUGCACUUUAUUUCUGACCCCGUGGUGGAAUUCUCGGGUGCCAA	0.957
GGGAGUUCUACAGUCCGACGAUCGGUGUGUAUUUAGUCACCAACCGGCCUCCAUUGUGUGUAUCAGCAAACACCAGACUCGCUCAGAGGUGAUGUCCAUCUUUGAGAAACAUGAAGCUUUGCUUUGUGGAUUGUGGAAUUCUCGGGUGCCAA	0.229
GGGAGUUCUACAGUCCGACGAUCGUUCCCCAGGAAAUGAUCUUCCACUUGAGCAACCUUUUACUUGAUACGAUUUGCACCUUUCUGUUUUCCUGCAGUCAGGGUGGUGGCCUGCAGGGACCUGAGCUUUGCUAUGGAAUUCUCGGGUGCCAA	0.963
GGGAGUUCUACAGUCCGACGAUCGCUCCUUGAGAGCAGGAUCCAUGUCAUUCCUUUAUUUUUAUAAAUUAUUCCCCCUAUCAUUCCUUUACAGUGCCUAGUGCUACUCAUUAUGUGUUCAUUGAAUUUGACUGUGGAAUUCUCGGGUGCCAA	0.67
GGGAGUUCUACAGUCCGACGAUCGUUACAAGGUAAGCUAGGUUGCCCACUUGCCCACUCGUCCUCUCCCUGCUGCAGUCUCUUGGGUCUCACACGCACUGCAAAUGCUAAGCGAUGGCCAGCUGUCUCCCUCCUGGAAUUCUCGGGUGCCAA	0.521
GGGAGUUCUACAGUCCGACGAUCCAGAAGGGCAAUGAAAACAUUGGACAUGACCAUGAGUGCUUCCUUUCCUUAACUCUAGGUUUGUAGUCUGUUUUAAAUUAGGAUUAGUUCCUGCAUUCUGAAAUACAUUGUGGAAUUCUCGGGUGCCAA	0.43

Set 2
Target: Ras GTPase-activating protein-binding protein 1, full length (G3BP1, Homo sapiens, UniProt Q13283)
UniProt Q13283, sequence (whole entry, looked up): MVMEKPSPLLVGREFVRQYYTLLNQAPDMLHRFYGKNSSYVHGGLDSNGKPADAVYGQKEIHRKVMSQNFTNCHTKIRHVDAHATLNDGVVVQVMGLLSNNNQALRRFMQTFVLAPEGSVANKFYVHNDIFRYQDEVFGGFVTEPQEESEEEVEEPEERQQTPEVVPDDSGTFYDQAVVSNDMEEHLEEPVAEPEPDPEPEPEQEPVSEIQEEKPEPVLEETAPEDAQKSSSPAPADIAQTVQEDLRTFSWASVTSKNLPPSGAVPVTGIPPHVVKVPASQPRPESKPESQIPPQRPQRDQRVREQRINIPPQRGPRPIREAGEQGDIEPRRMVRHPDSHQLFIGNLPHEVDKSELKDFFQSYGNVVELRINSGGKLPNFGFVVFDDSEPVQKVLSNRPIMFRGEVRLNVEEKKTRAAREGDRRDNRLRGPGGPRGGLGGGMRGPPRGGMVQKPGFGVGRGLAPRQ
Technique: RNA Bind-n-Seq
Form: RNA
Sample: in vitro
Concentration: 200 nM
Setting: whole 134-nt RNA, ends assumed
Together with: 150 mM LiCl
Relative to: input library
Direction: higher = stronger binding
Each molecule: 7-deaza-guanosine replaces G
Oligonucleotide	log2 enrichment
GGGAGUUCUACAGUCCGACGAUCCACAGACAACACGCACCCACACAGACACAGAGGGAAGGGGUUGGGAUGGGGACAGGGUGCACAGCAGGGCGGCGUAGGACCCCAGCCCCUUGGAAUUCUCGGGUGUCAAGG	0.173
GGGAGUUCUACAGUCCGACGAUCAGUCCUGUGCUACACAUCGUAUGUACCGAAUCGGGAAAAAAAGGGUGGGUUUUUGGGAAAGUAUUAUGUUACGCCGUUCGGAUCUGCACUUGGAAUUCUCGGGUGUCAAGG	-1.64
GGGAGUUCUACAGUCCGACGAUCGUCCUGUGCUACACAUCGUAUGUACCGAAUCAAACCCCCCCAAAUUUUUAAAUUUAAAAAAGUAUUAUGUUACGCCGUUCGGAUCUGCACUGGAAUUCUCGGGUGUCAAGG	1.04
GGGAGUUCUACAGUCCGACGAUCGUCCUGUGCUACACAUCGUAUGUACCGAAUCGGGUUUUGGGGUUUUGGGGUUUUGGGGAAAGUAUUAUGUUACGCCGUUCGGAUCUGCACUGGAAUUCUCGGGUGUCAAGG	-0.0452
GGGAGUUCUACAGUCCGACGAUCGUCCUGUGCUACACAUCGUAUGUACCGAAUCGGGUUUUUGGUUUUUGGGUUUUUGGGGAAAGUAUUAUGUUACGCCGUUCGGAUCUGCACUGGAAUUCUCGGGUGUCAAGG	-0.586
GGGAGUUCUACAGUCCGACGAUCCACAGACAACACGCACCCACACAGACACAGAGGGAAGGGGUUGGGAUGGGGACAGGGUGCACAGUAGGGCGGGGUAGGACCCCAGCCCCUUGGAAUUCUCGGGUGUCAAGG	-0.0919
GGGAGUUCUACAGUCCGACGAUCCACAGACAGCACGCACCCACACAGACACAGAGGGAAGGGGUUGGGAUGGGGACAGGGUGCACAGCAGGGCGGGGUAGGACCCCAGCCCCUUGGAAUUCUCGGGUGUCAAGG	0.341
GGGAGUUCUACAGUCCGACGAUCUGGCCCUGGUGGCAUGCGGGGAGGAAGAGGUGGCCUCAUGGAUCGUGGUGGGCCCGGUGGAAUGUUCAGAGGUGGCCGUGGUGGAGACAGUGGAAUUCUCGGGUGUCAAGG	0.896
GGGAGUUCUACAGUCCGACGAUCUCCUCAAGUCCUGUGCUACACAUCGUAUGUACCGAAUCGGAGGGGAGGAGGAAAGUAUUAUGUUACGCCGUUCGGAUCUGCACUUCCAGCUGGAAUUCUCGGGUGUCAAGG	-1.42
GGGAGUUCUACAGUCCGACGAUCACCAUGCAGGUGGGCAUCUUUGGGAAGUGGGGCAAGGGGGGGAUAGGGAGGGGGGUAACACUUUGGGAACAGGUGGUCCCAGGCCGUUUCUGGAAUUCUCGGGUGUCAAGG	0.248
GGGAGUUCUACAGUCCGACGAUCCUGUGCUACACAUCGUAUGUACCGAAUCGGGCCCCCCCGGGCCCCCCCGGGCCCCCCCGGGAAAGUAUUAUGUUACGCCGUUCGGAUCUGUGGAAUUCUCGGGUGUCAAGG	-0.206

Set 3
Target: Prothrombin, mature alpha-thrombin (F2, Homo sapiens, UniProt P00734)
Technique: aptamer microarray, sandwich
Form: DNA with 2'F-ANA
Sample: in vitro
Concentration: 200 nM
Setting: whole 15-mer aptamer, many near background
Together with: Cy3 exosite-II aptamer, 400 nM
Direction: higher = stronger binding
Oligonucleotide: GGTTGGTGTGGTTGG
Modification	mean fluorescence intensity
2'F-ANA at 2 8 13	498 a.u.
2'F-ANA at 2 3 4 5 6 7 11 12	149 a.u.
2'F-ANA at 1 5 6 8 9 10 11 13 14 15	59.3 a.u.
2'F-ANA at 3 4 5 8 9 12 13 14	96.9 a.u.
2'F-ANA at 3 9 11	1060 a.u.
2'F-ANA at 1 4 6 7 8 10 13 15	47.6 a.u.
2'F-ANA at 2 3 5 6 9 11 12 15	150 a.u.
2'F-ANA at 2 5 6 8 9	94.5 a.u.
2'F-ANA at 1 6 7 8 9 12 13 14	68.2 a.u.
2'F-ANA at 1 3 6 7 8 9 11 12 13	373 a.u.
2'F-ANA at 3 4 6 7 8 11 13	479 a.u.
2'F-ANA at 2 3 4 5 6 9 10 13 15	41.8 a.u.
2'F-ANA at 6 8 10 11	174 a.u.
2'F-ANA at 1 2 7 8 9 10 11 12	68 a.u.
2'F-ANA at 3 4 5 6 8 14 15	51.1 a.u.
2'F-ANA at 2 3 4 6 7 8 9 10 12	305 a.u.
2'F-ANA at 1 4 8 9 11 14 15	77.9 a.u.
2'F-ANA at 1 4 6 7 9 10 13 14 15	54.4 a.u.
2'F-ANA at 1 3 4 9 10 12 13 14	144 a.u.
2'F-ANA at 3 4 6 8 9 15	565 a.u.
2'F-ANA at 2 3 4 6 7 8 9 10 11 12 13 15	177 a.u.
2'F-ANA at 1 2 3 4 5 9 13 14 15	59.5 a.u.
2'F-ANA at 1 2 8 9 10 11 14 15	52.9 a.u.
2'F-ANA at 1 4 8 11 12	295 a.u.
2'F-ANA at 1 2 3 4 7 10 11	55.6 a.u.

Set 4
Target: Interferon regulatory factor 5, full length, phosphomimetic (IRF5, Homo sapiens, UniProt Q13568-2, residues 1-514, K96S/S451D/S453D/S456D/S462D)
Technique: protein-binding microarray
Form: double-stranded DNA, one strand shown
Sample: in vitro
Concentration: 250 nM
Setting: 60-bp whole probe
Together with: salmon DNA 0.4 mg/ml
Relative to: random background probes
Direction: higher = stronger binding
All sequences stand within: GCCTAGCAC … GTCTTGATTCGCTTGACGCTGCTG
Oligonucleotide	log fluorescence [z-score]
TCAGATTTCAGTTTCGATTAGTGCTAG	10.4
TCAGAATTAGGTTTCACACTGTGCTAG	1.7
GTTAGTGGGATGGCTGTGGTGTGCTAG	-0.514
TATTTTTACATTATTACCTCGTGCTAG	1.14
GCCGGTTTCGGTCTCGGGACGTGCTAG	10.2
GACGGACTGCGACTGCTGACGTGCTAG	-0.514
TTAGGTCTCGGCCTGGGTTAGTGCTAG	-0.202
CTCTTTCTCTGCTACCCTCTGGTGCTA	1.5
TCAGATCTCAGACTGTGACTGTGCTAG	-0.417
GACGGTCTCGTTCTCGGGACGTGCTAG	-0.198
TTAGGTTTCGATTATCGGTTAGTGCTA	10.2
TTATGTATCGACTTTCGGTTAGTGCTA	10.2
GGTGGTGATGGTGAGTAAGAGTGCTAG	-0.592
TTAGATCTCGGTCTCGATTAGTGCTAG	0.654
GACGGACTGGCACTGGGGACGTGCTAG	-0.742
CTTTGCCTCATCTTGCAGGTAGTGCTA	0.0837
GACGACCTGGGGTTTCGAGACGTGCTA	0.777
TTAGGTTTCGCCTTTCGGTTAGTGCTA	9.01
TTAGATCTCAGACTGGGTTAGTGCTAG	-0.167

Some of these lines once more (set 1):
Oligonucleotide	RBNS enrichment (R)
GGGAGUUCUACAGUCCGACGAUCGUUACAAGGUAAGCUAGGUUGCCCACUUGCCCACUCGUCCUCUCCCUGCUGCAGUCUCUUGGGUCUCACACGCACUGCAAAUGCUAAGCGAUGGCCAGCUGUCUCCCUCCUGGAAUUCUCGGGUGCCAA	0.521
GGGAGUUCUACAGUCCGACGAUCUAGGGCCACAUCAACCUGAGUUGGUACUGGGUGGCCAGGAUGGGGACUUUCCCAUUCUCAGCUGAGGUUGGAAGAAACCACUCUGGGUGUCCUUUCUGGGACCUGUCUGCUGGAAUUCUCGGGUGCCAA	0.275
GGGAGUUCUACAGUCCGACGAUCGAGUCACGCUCAAUUGACCCUGCCAGAGACGGGAAGAGGGGGGCUGUCGGCUGCUGCUUCUGGGCCACGGGGAGCCCCAGGACCUAUGCACUUUAUUUCUGACCCCGUGGUGGAAUUCUCGGGUGCCAA	0.957
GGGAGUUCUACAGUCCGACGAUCGGUGUGUAUUUAGUCACCAACCGGCCUCCAUUGUGUGUAUCAGCAAACACCAGACUCGCUCAGAGGUGAUGUCCAUCUUUGAGAAACAUGAAGCUUUGCUUUGUGGAUUGUGGAAUUCUCGGGUGCCAA	0.229
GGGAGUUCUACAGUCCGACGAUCGCUCCUUGAGAGCAGGAUCCAUGUCAUUCCUUUAUUUUUAUAAAUUAUUCCCCCUAUCAUUCCUUUACAGUGCCUAGUGCUACUCAUUAUGUGUUCAUUGAAUUUGACUGUGGAAUUCUCGGGUGCCAA	0.67
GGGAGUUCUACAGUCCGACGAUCGGGGCUUCCUUGGGACCAGUGCAAGGAAGUUCUGCUGUCCCUGGGAAGUCUCAGAACCAGGAAGGAAACCCUGUGGAGGCUGCCCUUUGACCUUUGGACGCCACCUGUAAUGGAAUUCUCGGGUGCCAA	0.382
